Literature values that unrelated publications cite.
± gives the spread as reported.

SMILES	target	assay	system	setting	IC50
O=C(O)c1ccnc(N2CC(O)(c3ccc(OCc4c(-c5c(Cl)cccc5Cl)noc4C4CC4)cc3Cl)C2)c1	CYP2C9	inhibitor			13.6 µM
CN(C)CC=CC(=O)Nc1cc2c(Nc3ccc(F)c(Cl)c3)ncnc2cc1O[C@H]1CCOC1	OATP1B3	transport, inhibitor	HEK293	added: estradiol 17β-glucuronide	> 70 µM
CN1CCN(c2ccc(Nc3ncc4cc5n(c4n3)C3(CCCCC3)CNC5=O)nc2)CC1	OCT2	transport, inhibitor			0.152 µM
O=C(/C=C/C=C/c1ccc2c(c1)OCO2)N1CCCCC1	MDR1 (P-glycoprotein), human	efflux transport, inhibitor	Caco-2	added: cyclosporine A substrate	74.1 µM
C[C@@H]1O[C@@H](OC[C@H]2O[C@@H](Oc3c(-c4ccc(O)c(O)c4)oc4cc(O)cc(O)c4c3=O)[C@H](O)[C@@H](O)[C@@H]2O)[C@H](O)[C@H](O)[C@H]1O	OATP1B3	transport, inhibitor		not reached, top 150 µM	> 150 µM
Cc1ccc(OCC(=O)N(Cc2cccs2)c2ccn[nH]2)cc1	human CYP2C19	enzyme activity, inhibitor	human liver microsomes	added: S-mephenytoin	1.3 µM
C[C@@H](c1nc(-c2ccc(C#N)cc2)cs1)[C@](O)(Cn1cncn1)c1cc(F)ccc1F	BCRP (ABCG2)	transport, inhibitor		added: [3H]prazosin	35.3 µM
C[C@@H](c1nc(-c2ccc(C#N)cc2)cs1)[C@](O)(Cn1cncn1)c1cc(F)ccc1F	CYP2D6	enzyme activity, inhibitor		added: bufuralol 1'-hydroxylation	4.82 µM
C[C@@H](c1nc(-c2ccc(C#N)cc2)cs1)[C@](O)(Cn1cncn1)c1cc(F)ccc1F	UGT1A9 human	inhibitor	human liver microsomes	added: propofol	19 µM
COc1cc2c(cc1OC)CN(CCc1ccc(NC(=O)c3cc(OC)c(OC)cc3NC(=O)c3cnc4ccccc4c3)cc1)CC2	P-glycoprotein	inhibitor		in vivo	1.05 µM
COc1cc2c(cc1OC)CN(CCc1ccc(NC(=O)c3cc(OC)c(OC)cc3NC(=O)c3cnc4ccccc4c3)cc1)CC2	human BCRP (ABCG2)	mitoxantrone transport	BCRP-overexpressing cells		0.916 µM
C=CC(=O)N1CCC([C@@H]2CCNc3c(C(N)=O)c(-c4ccc(Oc5ccccc5)cc4)nn32)CC1	hERG channel	ion current, inhibitor			9.11 µM
Cc1nc(C(=O)NCC(=O)O)c(O)c2ccc(Oc3ccccc3)cc12	BCRP	transport activity, inhibitor			3.05 µM
C#Cc1ccc2ccccc2c1	cytochrome P450 2A6	coumarin 7-hydroxylation, inhibitor			8.8 µM
O=C(Nc1nc2cccc(-c3ccc(CN4CCS(=O)(=O)CC4)cc3)n2n1)C1CC1	OATP1B1	inhibitor			98 µM
CO[C@H]1C[C@@H]2CC[C@@H](C)[C@@](O)(O2)C(=O)C(=O)N2CCCC[C@H]2C(=O)O[C@H]([C@H](C)C[C@@H]2CC[C@@H](OCCO)[C@H](OC)C2)CC(=O)[C@H](C)/C=C(\C)[C@@H](O)[C@@H](OC)C(=O)[C@H](C)C[C@H](C)/C=C/C=C/C=C/1C	human OATP1B1	rosuvastatin uptake, inhibitor	OATP1B1-expressing cells	co-incubation, added: rosuvastatin	1.58 ± 0.92 µM
